Published values from different studies.
Compare with care: the assays were run in different laboratories. ± marks the error that the study gave.

CN[C@](C)(C[18F])C(=O)O — tracer uptake (MDA-MB-468 tumour model; host not given, lung; 1 h, tumour-bearing): 1.5 %ID/g
COc1ccc(CNc2nc(N3CCC[C@H]3CO)ncc2C(=O)NN)cc1Cl — revertant count (Salmonella typhimurium; TA102; 1000 µg/plate): 210 ± 14
COc1cc(C(=O)NCCOCCOCCOCCNC(=O)c2ccc([18F])nc2)ccc1NC(=O)C1NC(CC(C)(C)C)C(C#N)(c2ccc(Cl)cc2F)C1c1cccc(Cl)c1F (centres unmarked) — tracer uptake (HepG2 tumour model; host not given, lung; 2 h, tumour-bearing): 0.81 %ID/g
O=C(O)CCC(NP(=O)(O)OCCC[C@@H](NC(=O)CCC(NC(=O)CCCCCNC(=O)CCCCCNC(=O)c1ccc([18F])cc1)C(=O)O)C(=O)O)C(=O)O (some centres unmarked) — tracer uptake (CWR22Rv1 tumour model; host not given, spleen; intravenous, 1 h, tumour-bearing): 0.32 %ID/g
COc1ccc(CNc2nc(N3CCC[C@H]3CO)ncc2C(=O)NNC(=O)c2cnc(N3CCC[C@H]3CO)nc2NCc2ccc(OC)c(Cl)c2)cc1Cl — revertant count (Salmonella typhimurium; TA97a; 125 µg/plate, 48 h, together with: rat liver S9): 146 ± 32
C[C@@](O)(C(F)F)[C@H](NC(=O)c1ccc(C#CC#CC2CC2)cc1)C(=O)NO — apparent volume of distribution (Vz/F) (CD-1 mice; oral, 40 mg/kg, fasted): 8.9 ± 3.2 L/kg
CCC(=O)N(C)c1ccc(Cl)c(Cl)c1 — revertant colonies (Salmonella typhimurium; Ames test; TA1535; 1.00 mg/plate, with rat liver S9): 7 ± 1.2 revertants/plate
O=C(O)CCC(NP(=O)(O)OCCC[C@@H](NC(=O)CCC(NC(=O)c1ccc([18F])cc1)C(=O)O)C(=O)O)C(=O)O (some centres unmarked) — tracer uptake (CWR22Rv1 tumour model; host not given, heart; intravenous, 1 h, tumour-bearing): 0.75 %ID/g

For quick reference, copied from above:
CCC(=O)N(C)c1ccc(Cl)c(Cl)c1 — revertant colonies (Salmonella typhimurium; Ames test; TA1535; 1.00 mg/plate, with rat liver S9): 7 ± 1.2 revertants/plate
